# Assay results collected from several papers.
# ± marks the error that the study gave.
# Sequence of UniProt P42575 (whole entry, looked up): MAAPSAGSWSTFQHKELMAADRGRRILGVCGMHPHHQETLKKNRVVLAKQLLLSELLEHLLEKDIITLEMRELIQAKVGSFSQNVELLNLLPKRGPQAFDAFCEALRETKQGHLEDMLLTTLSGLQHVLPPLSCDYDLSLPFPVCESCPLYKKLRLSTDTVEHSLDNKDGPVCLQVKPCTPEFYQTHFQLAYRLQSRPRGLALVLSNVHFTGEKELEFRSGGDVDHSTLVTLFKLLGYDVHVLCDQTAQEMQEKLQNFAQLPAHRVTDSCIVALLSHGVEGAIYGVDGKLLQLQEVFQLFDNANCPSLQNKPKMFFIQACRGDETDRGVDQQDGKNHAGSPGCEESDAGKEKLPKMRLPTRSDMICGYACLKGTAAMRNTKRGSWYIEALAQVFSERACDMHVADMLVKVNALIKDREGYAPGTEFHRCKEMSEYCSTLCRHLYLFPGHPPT
Compound,tested on,test,conditions,how to read,measurement,result
CC[C@H](C)[C@H](NC(=O)[C@H](C)NC(=O)CNC(=O)[C@H](Cc1ccccc1)NC(=O)[C@H](CC(N)=O)NC(=O)[C@H](CC(N)=O)NC(=O)[C@H](CO)NC(=O)[C@H](CO)NC(=O)[C@H](Cc1c[nH]cn1)NC(=O)[C@@H](NC(=O)[C@H](CC(C)C)NC(=O)[C@H](Cc1ccccc1)NC(=O)[C@H](CC(N)=O)NC(=O)[C@H](C)NC(=O)[C@H](CC(C)C)NC(=O)[C@H](CCCNC(=N)N)NC(=O)[C@H](CCC(N)=O)NC(=O)[C@@H](NC(=O)[C@H](C)NC(=O)[C@@H]1CSSC[C@H](NC(=O)[C@@H](N)CCCCN)C(=O)N[C@@H](CC(N)=O)C(=O)N[C@@H]([C@@H](C)O)C(=O)N[C@@H](C)C(=O)N[C@@H]([C@@H](C)O)C(=O)N1)[C@@H](C)O)C(C)C)C(=O)N[C@@H](CC(C)C)C(=O)N[C@@H](CO)C(=O)N[C@@H](CO)C(=O)N[C@H](C(=O)N[C@@H](CC(N)=O)C(=O)N[C@H](C(=O)NCC(=O)N[C@@H](CO)C(=O)N[C@@H](CC(N)=O)C(=O)N[C@H](C(=O)N[C@@H](Cc1ccc(O)cc1)C(N)=O)[C@@H](C)O)C(C)C)[C@@H](C)O,INS-1,AlamarBlue,"42 µM, 24 h",relative to: medium alone,viability,14 ± 9%
Oc1cc2nc(c1)CNCc1cc(O)cc(n1)CNC2,HT-22,WST-8,"100 µM, 24 h pretreatment, added: H2O2 600 µM for 4 h",relative to: untreated,viability,> 90%
CC[C@H](C)[C@H](NC(C)=O)C(=O)N[C@H](C(=O)N[C@H](C(=O)N[C@@H](CCCCN)C(=O)N[C@H](C=O)CC(=O)O)C(C)C)[C@@H](C)O,"Caspase-2 (Homo sapiens, UniProt P42575)","enzyme activity, inhibitor, fluorescence",pH 6.5,,Ki,398 nM
CCC(=O)N(C)c1ccc(Cl)c(Cl)c1,"CAR3 constitutive androstane receptor, human","reporter gene, agonist",32 µM,relative to: vehicle,fold activation,0.06 fold
COc1cc2c(cc1O)[C@]1(O)C(=O)c3c(O)cc4c(c3O[C@@H]1CO2)C=CC(C)(C)O4,A549,"cell growth or viability, MTT",6.25 µg/mL,,viability,117%
CNc1ccc(-c2nc3ccc(O)c(CN4CCN(C)CCN(C)CC4)c3s2)cn1,Neuro2A,Alamar Blue,"up to 10 µM, 40 h",relative to: 1% DMSO vehicle,viability,> 80%
CC(C)=CCc1cc(-c2coc3cc(O)c(CC=C(C)C)c(O)c3c2=O)ccc1O,A549,"cell growth or viability, MTT",12.5 µg/mL,,viability,117%
Cc1nc(C)c(C=[N+]([O-])C(C)(C)C)nc1C,Sprague-Dawley rat primary midbrain neurons,,"30 µM, 24 h",relative to: untreated,viability,97.8 ± 2.34%
COc1ccc(-c2coc3c(CC=C(C)C)c(O)c(CC=C(C)C)c(O)c3c2=O)cc1O,A549,"cell growth or viability, MTT",25 µg/mL,,viability,114%
COc1cc(CNC(=O)C[C@H](C)CCC=C(C)C)ccc1OCc1cn(-c2cccc([N+](=O)[O-])c2)nn1,ACHN,SRB,"10 µM, 48 h",,growth percent,112%
CC(C)C[C@H](NC(=O)[C@H](CCCNC(=N)N)NC(=O)[C@H](CCC(N)=O)NC(=O)[C@@H](NC(=O)[C@H](C)NC(=O)[C@@H]1CSSC[C@H](NC(=O)[C@@H](N)CCCCN)C(=O)N[C@@H](CC(N)=O)C(=O)N[C@@H]([C@@H](C)O)C(=O)N[C@@H](C)C(=O)N[C@@H]([C@@H](C)O)C(=O)N1)[C@@H](C)O)C(=O)N[C@@H](C)C(=O)N[C@@H](CC(N)=O)C(=O)N[C@@H](Cc1ccccc1)C(=O)N[C@@H](CC(C)C)C(=O)N[C@H](C(=O)N[C@@H](CCCNC(=N)N)C(=O)N[C@@H](CO)C(=O)N[C@@H](CO)C(=O)N[C@@H](CC(N)=O)C(=O)N[C@@H](CC(N)=O)C(=O)N[C@@H](Cc1ccccc1)C(=O)N1CCC[C@H]1C(=O)N[C@@H](C)C(=O)N1CCC[C@H]1C(=O)N[C@@H](CC(C)C)C(=O)N[C@@H](CO)C(=O)N[C@@H](CO)C(=O)N[C@H](C(=O)N[C@@H](CC(N)=O)C(=O)N[C@H](C(=O)NCC(=O)N[C@@H](CO)C(=O)N[C@@H](CC(N)=O)C(=O)N[C@H](C(=O)N[C@@H](Cc1ccc(O)cc1)C(N)=O)[C@@H](C)O)C(C)C)[C@@H](C)O)C(C)C,INS-1,AlamarBlue,"42 µM, 24 and 48 h",,viability,not toxic
COc1ccc([C@@H]2CC(=O)c3c(O)cc(O[C@@H]4O[C@H](CO[C@@H]5O[C@@H](C)[C@H](O)[C@@H](O)[C@H]5O)[C@@H](O[C@H]5O[C@H](CO)[C@@H](O)[C@H](O)[C@H]5O)[C@H](O)[C@H]4O)cc3O2)cc1O,MRC5,"cell growth or viability, MTS","50 µg/mL, 48 h",,viability,77.1%
COCCNCC(=O)N(CCCCN)CC(=O)N(CC(=O)N(CC(=O)N(CCCCN)CC(=O)N[C@@H](CCCCN)C(=O)N[C@H](CCCCN)C(=O)N[C@@H](CCSC)C(=O)NCCCC[C@H](NC(=O)[C@H](CCSC)NC(=O)[C@@H](CCCCN)NC(=O)[C@H](CCCCN)NC(=O)CN(CCCCN)C(=O)CN(C(=O)CN(Cc1ccc2c(c1)OCO2)C(=O)CN(CCCCN)C(=O)CNCCOC)[C@H](C)c1ccccc1)C(N)=O)[C@H](C)c1ccccc1)Cc1ccc2c(c1)OCO2,HBEC3KT,MTS,concentration not given,,viability,no effect
CCCCCCCCCCN1C(=O)/C(=N\NC(N)=S)c2cc(C)ccc21,BJ,"cell growth or viability, MTT","18 µg/mL, 24 h",,viability,~80%
COc1cc(CNC(=O)C[C@H](C)CCC=C(C)C)ccc1OCc1cn(-c2ccccc2F)nn1,EKVX,SRB,"10 µM, 48 h",,growth percent,78.3%
O=C(N[C@@H](Cn1ccnc1)c1ccc(F)cc1F)c1ccc(-c2nnc(-c3ccccc3)o2)cc1,NIH/3T3,BrdU incorporation,"50 µM, 24 h",relative to: DMSO,viability,65.9 ± 3.1%

# A few entries again:
Compound,tested on,test,conditions,how to read,measurement,result
COCCNCC(=O)N(CCCCN)CC(=O)N(CC(=O)N(CC(=O)N(CCCCN)CC(=O)N[C@@H](CCCCN)C(=O)N[C@H](CCCCN)C(=O)N[C@@H](CCSC)C(=O)NCCCC[C@H](NC(=O)[C@H](CCSC)NC(=O)[C@@H](CCCCN)NC(=O)[C@H](CCCCN)NC(=O)CN(CCCCN)C(=O)CN(C(=O)CN(Cc1ccc2c(c1)OCO2)C(=O)CN(CCCCN)C(=O)CNCCOC)[C@H](C)c1ccccc1)C(N)=O)[C@H](C)c1ccccc1)Cc1ccc2c(c1)OCO2,HBEC3KT,MTS,concentration not given,,viability,no effect
CCCCCCCCCCN1C(=O)/C(=N\NC(N)=S)c2cc(C)ccc21,BJ,"cell growth or viability, MTT","18 µg/mL, 24 h",,viability,~80%
